# Experimental data from different studies.
# A part holds a random share of what one study measured.

# Block 1
# Target: Histone acetyltransferase KAT6A, both winged helices, GST fusion (KAT6A, Homo sapiens, UniProt Q92794, residues 1-181)
# Technique: protein binding microarray
# Molecule type: double-stranded DNA, one strand shown
# Medium: in vitro
# Concentration: not given
# Setting: 8-mer, flanks averaged, mean of 2 arrays, mostly near background
# Reference: not given
# Reading: higher = stronger binding
# Target sequence (chain): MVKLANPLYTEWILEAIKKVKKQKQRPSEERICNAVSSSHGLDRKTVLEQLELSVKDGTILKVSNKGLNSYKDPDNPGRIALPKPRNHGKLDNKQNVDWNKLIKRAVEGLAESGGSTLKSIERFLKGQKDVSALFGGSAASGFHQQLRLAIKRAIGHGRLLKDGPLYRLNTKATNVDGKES
Strand,E-score
CCATTGAG,0.0798
GCAGAAAA,-0.000475
CAACCTAA,-0.188
AACCTTAA,-0.162
AAGAAGAT,0.0511
AACGTCCG,0.161
CACCTAGA,-0.134
GCATGACA,-0.0512
ATGCGCAG,0.251
AAGCATAG,-0.2
GGAAACAA,-0.0512
CGCCTCCA,0.0553
GCTATATA,-0.055
CGACAATA,0.0326
AAACGTTC,0.0429
CGCGAGGC,0.297
CCTGGGAG,-0.121
CCCCGCAA,0.192
CTTAGTTC,-0.0475
ATCCCCGG,0.0561
CTCTGTAC,-0.0945
AATATCTC,-0.0673
GCATAAAA,-0.0693
GAGTCTGC,-0.122
AAACGCTT,0.0702

# Block 2
# Target: Fragile X messenger ribonucleoprotein 1, C-terminal low-complexity region (Fmr1, Mus musculus, UniProt P35922)
# Technique: RNA Bind-n-Seq
# Molecule type: RNA
# Medium: in vitro
# Concentration: 200 nM
# Setting: whole 134-nt RNA, ends assumed
# With: 150 mM LiCl
# Reference: input library
# Reading: higher = stronger binding
# All molecules: 7-deaza-guanosine replaces G
# Constant ends, left off below: GGGAGUUCUACAGUCCGACGAUC … UGGAAUUCUCGGGUGUCAAGG
Strand,log2 enrichment
AGUCCUGUGCUACACAUCGUAUGUACCGAAUCGGUUUUGGGUUUUGGGGUUUUGGGGAAAGUAUUAUGUUACGCCGUUCGGAUCUGCACU,-1.25
CCUCAAGUCCUGUGCUACACAUCGUAUGUACCGAAUCGGGGUGGUGGGUGGGAAAGUAUUAUGUUACGCCGUUCGGAUCUGCACUUCCAG,-0.372
AAGUCCUGUGCUACACAUCGUAUGUACCGAAUCGGGGUUUGGGGUUUGGGUUUGGGAAAGUAUUAUGUUACGCCGUUCGGAUCUGCACUU,-1.35
GCAGGAAGUAAAAACAAAUGGAAAUGCUUCGGAUAGUGGCAGGGGUGGGGGUUGCUAAGGAAAGGGUGGGAUGGGGGUGGGUAAAGAGUU,1.75
AAGUCCUGUGCUACACAUCGUAUGUACCGAAUCGGGUUUGGGUGGGUUUUUUUGGGAAAGUAUUAUGUUACGCCGUUCGGAUCUGCACUU,-1.42
UCAAGUCCUGUGCUACACAUCGUAUGUACCGAAUCGGUUUGGGUUUGGUUUGGGAAAGUAUUAUGUUACGCCGUUCGGAUCUGCACUUCC,-1.47
ACAGAGGGUUUGGUGGACGUUAUUCUCUAUCAUCAACCCGAUGACAAAAAGAAGAAUCGGGGGUUCUGCUUCCUUGAAUAUGAGGAUCAC,-3.02
UGGCCCUGGUGGCAUGCGGGGAGGAAGAGGUGGCCUCAUGGGUCGUGGUGGUCCCGGUGGAAUGUUCAGAGGUGGCCGUGGUGGAGACAG,-0.0385
UCCUGUGCUACACAUCGUAUGUACCGAAUCAAAUUUUUAAAUUUUUUUAAAUUUUUAAAAAAGUAUUAUGUUACGCCGUUCGGAUCUGCA,-1.88
CCUGUGCUACACAUCGUAUGUACCGAAUCGGGGUUUUUUGGGGUUUUUUGGGUUUUUUGGGAAAGUAUUAUGUUACGCCGUUCGGAUCUG,-0.228
UCCUGUGCUACACAUCGUAUGUACCGAAUCGGGGUUUGGGGAAAGGGGAAAAAAAGGGGAAAGUAUUAUGUUACGCCGUUCGGAUCUGCA,-0.542

# Block 3
# Target: RNA binding protein fox-1 homolog 2, RRM domain, GST-SBP tag (RBFOX2, Homo sapiens, UniProt O43251-10, residues 100-194)
# Technique: RNA Bind-n-Seq
# Molecule type: RNA
# Medium: in vitro
# Concentration: 365 nM
# Setting: natural RNA segment, single round, ends assumed
# Reference: no-protein control
# Reading: higher = stronger binding
# Constant ends, left off below: GGGAGUUCUACAGUCCGACGAUC … UGGAAUUCUCGGGUGCCAA
# Target sequence (chain): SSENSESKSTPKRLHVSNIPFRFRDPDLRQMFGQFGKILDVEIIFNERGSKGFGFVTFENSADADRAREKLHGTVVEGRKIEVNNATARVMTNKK
Strand,RBNS enrichment (R)
CCUUAACUCAGACCAGGGCCAUGCCUUGCGGGGAGCAGAGAGUGUGUGCACCACACCAAAGGGAGCCCUCCGUUAGUUAGAGGCCAGAGGACGAUGCCAGCCAGAGCCCC,0.468
AGUUGGCUUCUGUCUCUUUAGAGCCAAGAAAAUAGUAAUUAAGUGGCCUAGAUAUAGGAAGGGCAGAAUAAGCACUUACUCCCCCUGCCUUCCAAGAUGAAGAGGAGAAG,0.377
GCUGAUAAAAGCCAGUGGCAGCUGUCGUGGCUGUGCUUUGUACUGCUCUCUACCAUGAAAGUGUAAAUACUGUAAUGUCUAAUCUAUUUAUCACAACUGACUACUGGACC,0.704
GCUGUGCCAGCGCCGGGCCUUGGAAGCCUUUGACCUGGAUCCUGCACAGUGGGGAGUCAAUGUCCAGCCCUACUCCGGGUCCCCAGCCAACCUGGCCGUCUACACAGCCC,0.344
AGCCGCCCGCCCGCCGGUCCCCAGCCGGGCUCCGUUGGGUUUCCCAUUGUAAAUACUGCCUCGCCCCUCCUUUGAACUCCAGGGCAUCAGACCUCAAGGGGUAAACUGGA,0.408
CAUUUGAAUGACCCUCAGCAAUGUGCCUCCCUGCCCUCAAAUUCCCAGUUGAUAACAGUGUUUGAUUAAAUUUCCACUCAAGCCAAACAUGGUUACUAAGAAGAGAAAAA,0.469
AAGAUGAAUGGCGUCUGUGGGUUGCUAACUGAACUUUGAAGACCCGCUGCAAAACGCGCAGAUGUGCAGCAGAUUGGAAGGAGACACAGAUGGUCCUUUUUUUCCUGUUU,0.396
AGACGGGAACGGAAGCAGUUCCGCAGGACUGGCGCGGAGGCUCGCCACCCACCCACAGAUUUGGUUCGGUUUGGUUGUUUACCAGAUCACAUGAUGUCGAUGUCCCAAGG,0.528
AGAGAGAAAUGCCAUCAUGCUUACUGCUCUUUUGGAUUCUUCAUGCAGUGGCUUCCCAUUUGCUCUGGGAACAGUGCCUCUGUGCUGGUUAUAUGUAUGCACCACAUGUG,0.576
UCCUCAUCCUCCAUCCACAAGUGUCCUUCCAAGCAAGGUCCCCCUCUAGACAGUAGACAAGGACCCUUCUACUGAACCUCCAAGGAAAAGAAGAAGGAAAAGAAGAAGUG,0.272
GAACUCGAAAAUGGUGUUGCUUCAUGUACUUUGAAAACCAAUCAGGUGUUUCCUGCGCUACUACUUGUCAUGUUGCAUUCAUGUUCACAUCCUGAUUUCACUGCCUCAGA,0.252
GUGUCCCUGAGCAGGAGGGGCUGUUGGGGUUGAGGGGGCCUUCAUUAAACCAAGUAACAUUGGGUCCUUUUUAGGUCCCACUUAAGCUGCUCUCCUGUGUGUGCUGAGGG,0.552

# Block 4
# Target: RING finger protein unkempt homolog, zinc fingers 1-6, GST-SBP tag (UNK, Homo sapiens, UniProt Q9C0B0, residues 30-357)
# Chain of UniProt Q9C0B0 (30-357, looked up): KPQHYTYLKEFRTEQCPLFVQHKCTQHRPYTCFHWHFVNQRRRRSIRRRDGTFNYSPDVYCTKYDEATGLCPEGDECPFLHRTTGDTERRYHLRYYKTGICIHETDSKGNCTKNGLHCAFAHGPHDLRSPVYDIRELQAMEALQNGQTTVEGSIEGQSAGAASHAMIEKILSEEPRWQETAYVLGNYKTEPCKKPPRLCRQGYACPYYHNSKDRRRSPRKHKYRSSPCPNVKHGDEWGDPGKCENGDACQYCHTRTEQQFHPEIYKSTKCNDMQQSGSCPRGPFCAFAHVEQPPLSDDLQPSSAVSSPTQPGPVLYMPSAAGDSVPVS
# Technique: RNA Bind-n-Seq
# Molecule type: RNA
# Medium: in vitro
# Concentration: not given
# Setting: RNA with constant flanks, human and mouse sites, ends assumed
# Reference: input RNA pool
# Reading: higher = stronger binding
# Constant ends, left off below: GGGAGUUCUACAGUCCGACGAUC … CAACAGAGGAUUGAGCAUCA
Strand,bound/input enrichment
ACUGCAGGUCUAACAAUGCAUGCAUCAAUUCUUGCAUAUAUGUUUAAUUUGGUUGAAGAAGGAAAAAUAAGUACACCACUAAAUCCUGGAAAUCCAGUUAACAACCAAAUGUUUAUUCAA,0.131 ratio
UGCACCUUUAGAACUAUUAAUAGCAACCUGCAUUUUUUUUUAAUUUAUACUUCAGAAUCCUUUAAGAACCUGGUGUUCCUGAGUGGUCCUGAAUCAUAUAAGUUGGUAAUGGAAGCUGUA,3.16 ratio
AUAUCUUCCGAAGAGGGAGAGACGGAAGCUAAUAAUCACAAGAAGUUGUCAGAAUUUGGAAUUAGAAAUGGCAGCCGGCUUCAAGCAGAUGACUUCCUCCAGGACUAUACUUUAUUGAUC,0.363 ratio
GUCCUGAAGCUUUGUGUUUGGCUGCACCUGCAUAAGCUGCUACAAAUAGAAUAAAGAAUUCAUAGCCUGUAUCUAUCAUUUAGAUGCAUGGAAAAAUGGGCUUUGCACACAAUGGGUUUG,2.22 ratio
UCCACGUCAGAAGACAAUCGCCCUUUAACUGGACUUGCAGCUGCAAUUGCGGGAGCAAAACUUAGGAAAGUGUCCCGGGUGGAGGAUGGCUCUUUCCCAGGUGGAGGGAAUACUGGGAGU,0.196 ratio
CUUCUGUUUCAUACAAUAUCCUUUCAUACUUCUGCUAAUCUGCUAAUGUAAUUUGGAAGAUAGCUGUCACCAGGAUAACCUGUAAUGGGCAAGGAGCCACAGAGAAGAAAACAUUUCUUU,0.13 ratio
UUCUGGUUCAGAUCUGUGCCGUUGGCUGCCACAAGUAUGCUGAUUACUCAAGGAUUAAUUAGUAAAGGAAUCCUGUCAAGUCAUCCAAAAUAUGGUUCAAUUCCUAAACUUCUAUUCGCU,0.236 ratio
UUUGCUAGCCAAGGAAAGUAAAAUGUGAUUUUGUAACUGCACUAAACAUUUGUCAUGCUGUAGUUGCCAGCCCAGAAUAUUAGAAGUUACAAGACUGAUUUAAACCGUCUCUGAUUUAAU,0.54 ratio
AAGUCAGCAGCACAAGCCAGACGCCGGCUGAUGAGUGGAAAAGUCAAAGUGUGGGGAAAUGUGGUUACAGUAGAGUGGGCUGACCCCGUGGAGGAGCCGGAUCCAGAAGUCAUGGCAAAG,0.39 ratio
UCUGGAUCUGCUUCCUGGCAACACUAGGACAAAAAUCGGUUUCAUAACAUUUGAUAGCACUAUCCAUUUCUACAGUCUUCAGGAAGGUCUCUCCCAGCCUCAGAUGCUAAUAGUUUCAGA,0.736 ratio
AUUCUACCCUGUGCAUAUCUUUCUGUGUAGAGAGAUGGCAAACUUGAAAAUACUUACCCAGAAAACAGUUCAGUUAUAGAAUGGUUAAGGAGCACUUGGCCCGCUUCCUAUUCCACAUUU,0.255 ratio

# Repeated from above (block 1):
Strand,E-score
CAACCTAA,-0.188
CACCTAGA,-0.134
GAGTCTGC,-0.122
